Results of several laboratories.
Each numbered part is a random draw from the data of one study; scales do not carry over between parts.

Sample 1
Target: RING finger protein unkempt homolog, zinc fingers 1-6, GST-SBP tag (UNK, Homo sapiens, UniProt Q9C0B0, residues 30-357)
Technique: RNA Bind-n-Seq
Molecule type: RNA
Medium: in vitro
Tested at: not given
Notes: RNA with constant flanks, ends assumed
Reference: input RNA pool
Reading: higher = stronger binding
Target sequence (chain): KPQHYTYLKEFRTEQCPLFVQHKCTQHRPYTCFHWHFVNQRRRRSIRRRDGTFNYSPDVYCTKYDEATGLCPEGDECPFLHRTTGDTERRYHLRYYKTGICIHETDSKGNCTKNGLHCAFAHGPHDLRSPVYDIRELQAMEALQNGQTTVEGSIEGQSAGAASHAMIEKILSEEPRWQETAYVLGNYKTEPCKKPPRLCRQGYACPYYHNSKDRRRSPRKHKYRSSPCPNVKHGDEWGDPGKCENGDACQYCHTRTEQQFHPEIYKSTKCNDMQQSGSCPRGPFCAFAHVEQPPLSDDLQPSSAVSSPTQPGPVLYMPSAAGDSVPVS
Oligonucleotide	bound/input enrichment
GGGAGUUCUACAGUCCGACGAUCACCACUGGUGGAAUUGAUGAUAUGUGUCUGAAGUAUUUUGUGGAGGCUGGUGCUAUGGCAGUCCGAAGAGUUUUAAAAAGGGACCUUAAACGCAUUGCCAAAGCUUCUGGAGCAACUAUUCAACAGAGGAUUGAGCAUCA	0.218 ratio
GGGAGUUCUACAGUCCGACGAUCCUUUGAAUCUAAGGGAUAUAAAAAGAACCUAAUUACAGUAGAUACAAUGAAAAUAAUGGCUACCGAUGUUUGGACUGGAAGCAGUGUGGCCAAUAUGACUUAAAGAGACCUUAAAAUAUACAACAGAGGAUUGAGCAUCA	23.9 ratio
GGGAGUUCUACAGUCCGACGAUCGAUGGCAAUGGCCAGGAGGCCUAUGCCUCGAGCUGCAACAGCGGCACCUCUUACAAUUCCAUCCGCUCUGUUGUAUCCCGGUGAGGGCAGCCUCUGGCUUGGGCAGGGUCUGUUUGGACUCAACAGAGGAUUGAGCAUCA	0.0789 ratio
GGGAGUUCUACAGUCCGACGAUCCUAAUCGUGUCAGCAGAAGCACUUACUAUGAAAUCAUUUUUUUAAAGAAAUCUGCACAGCCGAUUUUUACAUUGAGCUGAGAUGAAUAUGCCUUGAAAAUAAUAUAAGUGUGAAAUUGUUCAACAGAGGAUUGAGCAUCA	0.105 ratio

Sample 2
Target: Histone acetyltransferase KAT6A, winged helix 1, GST fusion (KAT6A, Homo sapiens, UniProt Q92794, residues 1-85)
Technique: protein binding microarray
Molecule type: double-stranded DNA, one strand shown
Medium: in vitro
Tested at: not given
Notes: 8-mer, flanks averaged, mean of 2 arrays, mostly near background
Reference: not given
Reading: higher = stronger binding
Target sequence (chain): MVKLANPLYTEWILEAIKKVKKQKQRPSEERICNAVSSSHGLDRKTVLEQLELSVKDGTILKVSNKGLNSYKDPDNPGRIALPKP
Oligonucleotide	E-score
AAAGTGGT	-0.228
ACTTTTCC	0.0974
AGAGAACT	-0.162
ACGATATG	0.0567
AGCCTGCG	0.0813
AGATGTCC	-0.0375
GACACGCA	0.18
CGTTACGA	0.103

Sample 3
Target: TAR DNA-binding protein 43, full length, His tag (TARDBP, Homo sapiens, UniProt Q13148, residues 1-414)
Technique: RNA Bind-n-Seq
Molecule type: RNA
Medium: in vitro
Tested at: 20 nM
Notes: 6-mer, flanks averaged, single round
Together with: 150 mM LiCl
Reference: input library
Reading: higher = stronger binding
Oligonucleotide	6-mer enrichment (R)
AUCAUA	0.846
CUUGAU	0.964
GCGCGU	1.13
CGGCUG	1.03
UUGGAA	0.991

Other studies, line by line
Substance	target	test	system	setting	how to read	endpoint	result
PhoQ, residues 284 288 289 292 302 303 ALASRC	PhoP, residues 12 14 15 18 19 NQGLL (Escherichia coli, UniProt P23836)	Sort-seq, refers to: YFP reporter	E. coli	PhoQ-PhoP variant library, together with: 10 µM Mg2+	reference: high Mg2+ state, higher = stronger signaling	fold induction	1.99
